Measured values from different studies.
Numbered parts are unrelated; each lists some results of a single study. Positions count from the first letter of the parent shown.

Study 1 — technique: RNA Bind-n-Seq; form: RNA; matrix: in vitro; concentration: 1 µM; notes: whole 134-nt RNA, ends assumed; together with: 150 mM KCl; baseline: input library; reading: higher = stronger binding; endpoint: log2 enrichment
Target: Ras GTPase-activating protein-binding protein 1, C-terminal RGG region (G3BP1, Homo sapiens, UniProt Q13283)
Sequence of UniProt Q13283 (whole entry, looked up): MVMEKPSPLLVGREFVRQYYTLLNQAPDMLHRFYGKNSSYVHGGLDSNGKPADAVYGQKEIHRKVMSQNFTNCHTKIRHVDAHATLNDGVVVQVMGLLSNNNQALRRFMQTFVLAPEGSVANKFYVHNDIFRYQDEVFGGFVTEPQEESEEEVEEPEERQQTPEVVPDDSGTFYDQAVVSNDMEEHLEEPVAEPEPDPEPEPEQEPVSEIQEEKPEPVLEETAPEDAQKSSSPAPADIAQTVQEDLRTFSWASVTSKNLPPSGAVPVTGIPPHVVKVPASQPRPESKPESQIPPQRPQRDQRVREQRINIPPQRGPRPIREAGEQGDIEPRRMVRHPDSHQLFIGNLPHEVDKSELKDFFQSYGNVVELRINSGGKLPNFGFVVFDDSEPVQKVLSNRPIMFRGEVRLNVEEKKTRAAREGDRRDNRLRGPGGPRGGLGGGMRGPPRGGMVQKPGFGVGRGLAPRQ
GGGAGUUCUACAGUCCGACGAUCUUCAGUUUCCCAAACCUGAGAUGAUCUGUCAGCUGGAGAACUGGGACGAGCAGUGGAUCCUGGAUCUACCGAGAACUGGGAAUAGGAAGGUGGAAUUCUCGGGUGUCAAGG: -0.0938
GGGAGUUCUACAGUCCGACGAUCUUCCCACAGCCCAAAAAUCUUCUCAACAGUGUGAUUGGAAGAGCCCUCGGCAUCUCACAUGCAAAAGACAAACUAGUCUACGUGCACACAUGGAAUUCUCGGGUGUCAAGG: -0.715
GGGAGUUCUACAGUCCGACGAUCCUGUGCUACACAUCGUAUGUACCGAAUCGGGUUUUUUUGGGUUUUUUUGGGGUUUUUUUGGAAAGUAUUAUGUUACGCCGUUCGGAUCUGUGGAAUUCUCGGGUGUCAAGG: -0.988
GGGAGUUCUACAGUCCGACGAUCUGCAGUGAUGGUCAUUGUCCUCCAGAGCAGUGAUGGAGGAAAUACCAGCCCAGGAAGCAGCAGGGUCACCAAGGGUCCAGUUUCAGUCUUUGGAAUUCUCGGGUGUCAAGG: -0.529
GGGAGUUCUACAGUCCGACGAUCCAAGUCCUGUGCUACACAUCGUAUGUACCGAAUCGGGUUUGGGAAAGGGUUUGGGAAAGUAUUAUGUUACGCCGUUCGGAUCUGCACUUCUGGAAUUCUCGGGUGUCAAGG: 2.24
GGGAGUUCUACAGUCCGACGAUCCUCAAGUCCUGUGCUACACAUCGUAUGUACCGAAUCGGAAAAAGGAGGAAAGGAAAGUAUUAUGUUACGCCGUUCGGAUCUGCACUUCCAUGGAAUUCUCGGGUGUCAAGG: -1.45
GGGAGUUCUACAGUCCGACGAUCCCUGUGCUACACAUCGUAUGUACCGAAUCGGUUUUUUGGGGUUUUUUGGGUUUUUUGGGGAAAGUAUUAUGUUACGCCGUUCGGAUCUGCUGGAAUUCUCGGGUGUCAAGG: -1.73
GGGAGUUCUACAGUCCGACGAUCUAACUUUAGAGGAGGAUCUGAUGGAUAUGGCAGUGGACGUGGAUUUGGGGAUGGCUAUAAUGGGUAUGGAGGAAGACCUGGAGGUGGCAAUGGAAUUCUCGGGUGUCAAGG: -0.848
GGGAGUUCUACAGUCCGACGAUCGCAUAAUGGAUAUUUUUUAACUUGGCGAGAUGUGUCUCUCAAUCCUGUGGCUUUGGUGAGAGAGUGUGCAGAGAGCAAUGAUAGCAAAUAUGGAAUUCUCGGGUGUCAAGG: -0.74
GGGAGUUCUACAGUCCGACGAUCUUUUAUUCUUCCAUCUUUUCCCACAGGUGGCAGCUGCCAACAAGAAGCAUUAGAACAAACCAUGCUGGGUUAAUAAAUUGCCUCAUUCGUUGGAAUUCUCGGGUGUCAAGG: -0.84

Study 2 — technique: RNA Bind-n-Seq; form: RNA; matrix: in vitro; concentration: not given; baseline: input RNA pool; reading: higher = stronger binding; endpoint: bound/input enrichment
Target: RING finger protein unkempt homolog, zinc fingers 1-6, GST-SBP tag (UNK, Homo sapiens, UniProt Q9C0B0, residues 30-357)
Sequence of UniProt Q9C0B0 (30-357, looked up): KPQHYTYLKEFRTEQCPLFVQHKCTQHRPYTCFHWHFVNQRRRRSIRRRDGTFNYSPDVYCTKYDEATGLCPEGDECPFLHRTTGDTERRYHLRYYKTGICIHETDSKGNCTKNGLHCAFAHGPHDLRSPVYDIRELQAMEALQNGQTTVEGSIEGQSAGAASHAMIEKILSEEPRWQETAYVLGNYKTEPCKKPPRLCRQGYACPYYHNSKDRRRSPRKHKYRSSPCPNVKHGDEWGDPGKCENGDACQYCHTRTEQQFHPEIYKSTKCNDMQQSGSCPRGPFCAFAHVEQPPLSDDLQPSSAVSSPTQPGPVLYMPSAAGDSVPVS
Notes: RNA with constant flanks, human and mouse sites, ends assumed
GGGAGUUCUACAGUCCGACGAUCUAUCCUAUUGCGGUGCUCAUAGAUGAACUCCGCAAUGAGGACGUUCAGCUUCGUCUCAAUAGUAUCAAGAAGCUCUCCACAAUUGCCUUGGCCCUUGGGGUUGAACGGACCAGAAGUGAGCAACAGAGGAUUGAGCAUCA: 1.35 ratio
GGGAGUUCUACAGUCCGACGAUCGUGGCAAGCAAAAGAAAAGAGCUUUCACAAAAUACAGAUGAGUCUGGAUUAAAUGAUGAAGCCAUCGCCAAGCAAUUACAGCUUGAUGAAGAUGCGGAGCUGGAGAGGCAGUUGCAUGAACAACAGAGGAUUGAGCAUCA: 0.262 ratio
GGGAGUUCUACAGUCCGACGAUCUCAGGUACUUUGGAGGCCACAGAAAAGGAACCAGUGAACAAGGAAUCGGAGGAAAUGAGUGUAGUAUUUAUUUCUAAUUUGCCUAACAAAGGAUAUUCUACAGAAGAAAUUUACAACUUACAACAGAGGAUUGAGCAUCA: 0.342 ratio
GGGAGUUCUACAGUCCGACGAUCUUUUAAGCCCAAGCCCCCGGACACUGCAGCUCUUUUCAGUUUUCGCUAUACCUAAUUCAUUCUUUGCGGCAAAUAAAGCUGAAGAAGCCUGGGAAUAAAGUUUGGAAAGGGUUAAUAAAACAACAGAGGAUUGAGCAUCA: 0.29 ratio
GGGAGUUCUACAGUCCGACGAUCCCAGAUGGCUGGUUCUCUAAAGGCAGUAACUACAGUGAGAUCCUAGACAAGUACUUUAAGAGCUUUGAUAAUGGCGACUCUCACCUGGACUCCAGUGAAUUCCUGAAAUUCGUGGAGCAGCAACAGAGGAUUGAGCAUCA: 0.158 ratio
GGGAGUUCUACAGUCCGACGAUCAUCAAGGGUGAAAUCCCAUUCUGCUAGCAAAAUGCAGUAUUCACACCACUGUGAGCACCUUUUAGAGAGACUGAAUAAGCAACGGGAAGCGGGAUUUCUUUGCGACUGUACCGUAGUGAUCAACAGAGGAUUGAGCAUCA: 0.608 ratio
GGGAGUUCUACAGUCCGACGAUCCUAUACUGGAAGCAUGCGCCCAAGACCUGCAAGAACUUCGCGGAGCUGGCUCGGCGGGGCUACUACAAUGGCACCAAGUUCCACAGGAUCAUCAAGGACUUCAUGAUCCAAGGCGGCGACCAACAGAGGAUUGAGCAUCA: 0.127 ratio
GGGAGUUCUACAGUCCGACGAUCAUCUACGAAGAACUUGGCUAUGGCUGAUCUUUUUUAAAUUUAACUUUCUGAUGGACCCUGUAGUUUCCAGUUAAGUGCAGAUUCCUUACAGACAUAUAGAACAGCGCAUUCUUCUGUAGACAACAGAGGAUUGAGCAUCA: 0.999 ratio
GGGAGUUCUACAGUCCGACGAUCGUGCUGGGAGUCGGGGACUGAACCUGACUCUUCUUGUGAUUAAAACAGUUCUCAUCAUAGUGCACUGCACAGUUGAGCAGGGGUAUUUUUCUUCUCCCCAAAGUCCCCCCGGCCCCGUCUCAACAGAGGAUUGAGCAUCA: 0.733 ratio
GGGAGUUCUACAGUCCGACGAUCGAAGACUGAAUUUGUACGAAUUUCAGUUUAAUGUGCUAAUCUAACAGAUGCACUAUGGACCAUAGGAAGGCUAGAGAUUGUGAAUUCUUCAGACAGAUUUCCCUGCAAUUCAGGCUGUGGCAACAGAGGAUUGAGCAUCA: 0.179 ratio
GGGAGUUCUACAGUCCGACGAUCCCGUGCGGGUUCCAGCCCGCGUCCCGCGGCGGCGGCGAGCAAGAGACGCAGGAGCUGGCCUCGAAGCGGCUGGACAUCCAGAACAAGCGCUUCUACUUAGAUGUGAAGCAGAACGCCAAGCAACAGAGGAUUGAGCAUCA: 0.159 ratio

Study 3 — technique: RNA Bind-n-Seq; form: RNA; matrix: in vitro; concentration: 365 nM; baseline: no-protein control; reading: higher = stronger binding; endpoint: RBNS enrichment (R)
Target: RNA binding protein fox-1 homolog 2, RRM domain, GST-SBP tag (RBFOX2, Homo sapiens, UniProt O43251-10, residues 100-194)
Notes: natural RNA segment, single round, ends assumed
Target sequence (chain): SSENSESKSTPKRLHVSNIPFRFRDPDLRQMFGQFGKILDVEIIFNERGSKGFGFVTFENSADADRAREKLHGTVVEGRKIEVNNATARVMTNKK
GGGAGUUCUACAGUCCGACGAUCGGACUUUCUUCCCACCCCUUGCAGGGAGGUGUGAGCAGGAGACCCCUAGGGUGCCACUGAAUAAGAGACAGUAGAGAGCCCUGUCCUCUGGGGAUACAGCACCUGCUUCAUGGAAUUCUCGGGUGCCAA: 0.439
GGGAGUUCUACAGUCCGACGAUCCUGUAUGAAUGCAUGGCAUGAGACAACUAAUUUAAGAGACUUUUAUAAAUAAAGUUUGCAUUAACUAUACCCAUUUCCCAAAAUGCUCUGGGAGUUCUGGGCAACUAUUUUGGAAUUCUCGGGUGCCAA: 18.8
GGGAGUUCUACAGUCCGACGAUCUACAUGUCCUGUGUCCUGGGGACUAAUGUGUUAAUUGCCUUAAAUAAAUUAAUAGACUCCAAGUCCAUCCACAGGGUCAUACUUCUGUCUCCCGCACAGCUGGAGGCCACUGGAAUUCUCGGGUGCCAA: 0.332
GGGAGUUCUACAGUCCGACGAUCAUAAAGAAUAGGCCCCUGCCUGGCUCCUGGGAGAUAACCUCUAAGCCAUUAGAAUAUCUUGCCUGAUAAGAGUGUUUUUGUUUACCUGUGGGCCUUGGGCCAUGCAGUAUUGGAAUUCUCGGGUGCCAA: 0.511
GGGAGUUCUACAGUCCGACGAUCUUAGCUAGGCGAGUACAGACGGGGCCUGGGAGGGGGCAGAGAUGUUCCCCAGGCCCUGCCUGUGGUUCCUGCCUGGGCCUUGGCUGCUGCUGUGUGAGAGCUGCAUGUGAUGGAAUUCUCGGGUGCCAA: 2.56
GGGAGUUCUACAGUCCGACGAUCUUUCGGCUAGAGCCACCAUACUAGCAGUGACCUGUUAGGCUGCAGAGAGAAGGUGUGUCUGUGGUUCAGGAACAAGCUGUACAUUUUUCACCCUGACUAUGGGACGGAAAUGGAAUUCUCGGGUGCCAA: 0.48
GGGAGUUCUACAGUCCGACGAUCGCAAACAGAUGAGUAAUUUUUUAGCAACACCUGAAAAUAUACUAAACUUUCCUAGAUAAACUUUAAGGUUUCUAUACUGAGGCUUUUAUAAUGAACGCACCUCGUUAAGUUGGAAUUCUCGGGUGCCAA: 0.644
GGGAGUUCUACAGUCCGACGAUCCGCCACGCCAGCUCCUGGGUCGUUUUCAUUUAUCUGGCAGAGCCCAGGACCCUUAGAAUCAUAUUUUAGCUGAAGGAUGCUCACUGAUGCGGCCGAGGGCUUGGGAUACUUGGAAUUCUCGGGUGCCAA: 0.373
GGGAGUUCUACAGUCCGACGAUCAGAGUCCUUUCUCAGACAACUGAGGGAGUGUUUGGGGUGAUAUCCCAGAGACCUGGAGUUCCAGUGACUCAUAGAUACUCAGCUGAGGUAGCCAAGAAGGUGGCAGGCAGUGGAAUUCUCGGGUGCCAA: 0.381

Study 4 — target: CCNF, cyclin fold, Cln2 fusion (human); technique: yeast growth competition, sequencing; matrix: yeast; notes: strong parent motif; baseline: not given; reading: higher = stronger binding; endpoint: normalised enrichment score
Parent: CDC25A docking peptide (human); PPHRRRLLFACSP
R4V: 6.42
P2C: 6.81
R4P: 6.29
A10G: 7.7
R5A R6A L7A L8A: -0.0552
A10C: 7.22
P1E: 7
S12P: 7.79
P1K: 6.89
R4I: 4.21
P1V: 6.92
H3L: 7.73
R6V: 4.76
A10P: 8.14
A10N: 8.18
P13M: 7.62
L7T: 1.78
A10Q: 8.21
L8S: 5.41
P13E: 8.29
R6Q: 6.61
H3P: 9.17
L8E: 6.97
L8H: 6.68
C11S: 7.33

Repeated from above (study 1):
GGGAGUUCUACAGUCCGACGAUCUGCAGUGAUGGUCAUUGUCCUCCAGAGCAGUGAUGGAGGAAAUACCAGCCCAGGAAGCAGCAGGGUCACCAAGGGUCCAGUUUCAGUCUUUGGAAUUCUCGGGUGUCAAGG: -0.529
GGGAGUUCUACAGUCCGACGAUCCAAGUCCUGUGCUACACAUCGUAUGUACCGAAUCGGGUUUGGGAAAGGGUUUGGGAAAGUAUUAUGUUACGCCGUUCGGAUCUGCACUUCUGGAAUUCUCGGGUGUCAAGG: 2.24
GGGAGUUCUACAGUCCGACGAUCCUCAAGUCCUGUGCUACACAUCGUAUGUACCGAAUCGGAAAAAGGAGGAAAGGAAAGUAUUAUGUUACGCCGUUCGGAUCUGCACUUCCAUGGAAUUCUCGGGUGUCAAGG: -1.45
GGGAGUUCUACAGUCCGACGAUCGCAUAAUGGAUAUUUUUUAACUUGGCGAGAUGUGUCUCUCAAUCCUGUGGCUUUGGUGAGAGAGUGUGCAGAGAGCAAUGAUAGCAAAUAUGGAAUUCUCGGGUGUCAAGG: -0.74
